Published values pooled from the literature.
Lines come from different studies, so protocols differ. “And” joins repeats or separate records; there may be more than shown.

| Structure (SMILES) | tested on | test | test system | conditions | how to read | quantity | result |
| --- | --- | --- | --- | --- | --- | --- | --- |
| Nc1cc2cccnc2c2ncccc12.[Cl-].[Cl-].[Ru+2].c1cnc2c(c1)ccc1cccnc12.c1cnc2c(c1)ccc1cccnc12 | PC-3 | MTT | – | – | reference: IC50 dark over light | phototoxicity index | 9 and > 9 |
| CCc1c(C)c2ccc(OC(C)C)c(C)c2oc1=O | PC-3 | cell growth or viability, MTT | – | 1000 µg/mL | – | viability | 2.24% |
| [BH3-][P+]1(c2ccccc2)CCCCC1 | PC-3 | annexin V/PI flow cytometry | – | IC50, 72 h | – | necrotic cells | 0.15% |
| CN(C)CCN1CCN(c2ccc3nc(-c4ccc5nc(-c6ccc(C(F)(F)F)cc6)[nH]c5c4)[nH]c3c2)CC1 | PC-3 | SRB | – | 10 µM, 48 h | – | growth percent | 68.4% |
| C1=[N+]2CCCC[N+]3=Cc4ccc5[n]4[Au-]23[n]2c1ccc2-c1nc2ccccc2nc1-5.F[P-](F)(F)(F)(F)F | PC-3 | NCI60 five-dose screen | – | – | – | TGI | 4 -log M |
| CCCC(CCC)C(=O)OCc1cn(-c2cc3ccccc3oc2=O)nn1 | PC-3 | NCI60 single-dose screen | – | 10 µM | – | growth percentage | 91.3% |
| O=C(Nc1nnc2c1c(-c1ccc(Cl)cc1)nc1sc(=Cc3ccco3)c(=O)n12)c1ccccc1 (mixture of isomers) | PC-3 | SRB | – | 10 µM, NCI60 single-dose screen, prostate cancer | reference: untreated | cell growth | 64.5% |
| CCN(C(=O)c1cc(F)ccc1Oc1nncnc1N1CCC2(C1)CN([C@H](CCCN(C)CCOC)C(C)C)C2)C(C)C | PC-3 | cell growth or viability | – | 7 days | – | GI50 | > 10 µM |
| [BH3-][P+]1(c2ccccc2)CCC(=O)CC1 | PC-3 | MTT | – | 72 h | reference: IC50 HaCaT over IC50 PC-3 | selectivity index | 1 |
| C(=N\Nc1nc(Nc2ccccc2)nc(N2CCOCC2)n1)/c1c[nH]c2ccccc12 | Trypanosoma cruzi | reporter mRNA translation, inhibitor, measured: capped polyadenylated Renilla luciferase mRNA | cell-free extract | concentration not given | reference: control RNA | relative translation | 100% |
| CCCCCCC(=O)[O][Pt]([NH2])([NH2])([Cl])([Cl])[O]C(=O)CCC(C)C1CCC2C3CCC4CC(O)CCC4(C)C3CCC12C (stereo not drawn) | PC-3 | Western blot | – | 1 to 2 µM, 48 h, together with: cisplatin 2 µM | – | Bcl-2 protein level | decreased |
| Cc1cc(C)cc(COc2cc3c(cc2OCc2cc(C)cc(C)c2)[C@H]2C[C@@](O)(Cc4cn(Cc5ccc(F)cc5)nn4)C[C@@H](C)N2CC3)c1 | PC-3 | cell growth or viability, MTT | – | – | – | IC50 | 0.126 µM |
| Cc1ccc(Nc2nc(NCc3ccco3)c3ccccc3n2)cc1 | Trypanosoma cruzi | reporter mRNA translation, inhibitor, measured: capped polyadenylated Renilla luciferase mRNA | cell-free extract | concentration not given | reference: control RNA | relative translation | 82.7% |
| C=C(NC(=O)c1csc(-c2ccc(NC(=O)CCCCCBr)cc2)n1)C(=O)NC(=C)C(=O)OC | PC-3 | cell growth or viability | – | – | – | EC50 | 8 µM |
| COc1cc(/C=C/C(=O)/C=C(O)/C=C/c2ccc(OCC(=O)N3CCOCCOCCOCCOCC3)c(OC)c2)ccc1OCC(=O)N1CCOCCOCCOCCOCC1 | PC-3 | cell growth or viability, SRB | – | 25 µM | – | inhibition | 90% |

A few entries again:
| Structure (SMILES) | tested on | test | test system | conditions | how to read | quantity | result |
| --- | --- | --- | --- | --- | --- | --- | --- |
| CCCCCCC(=O)[O][Pt]([NH2])([NH2])([Cl])([Cl])[O]C(=O)CCC(C)C1CCC2C3CCC4CC(O)CCC4(C)C3CCC12C (stereo not drawn) | PC-3 | Western blot | – | 1 to 2 µM, 48 h, together with: cisplatin 2 µM | – | Bcl-2 protein level | decreased |
| C=C(NC(=O)c1csc(-c2ccc(NC(=O)CCCCCBr)cc2)n1)C(=O)NC(=C)C(=O)OC | PC-3 | cell growth or viability | – | – | – | EC50 | 8 µM |
